Experimental data from different studies.
Parts stem from different laboratories: compare values within a part only. Substitutions count along the parent as printed.

Study 1
Target: Histone acetyltransferase KAT6A, winged helix 2, GST fusion (KAT6A, Homo sapiens, UniProt Q92794, residues 85-181)
Method: protein binding microarray
Form: double-stranded DNA, one strand shown
Medium: in vitro
Tested at: not given
Notes: 8-mer, flanks averaged, mean of 2 arrays, mostly near background
Reference: not given
Direction: higher = stronger binding
Target sequence (chain): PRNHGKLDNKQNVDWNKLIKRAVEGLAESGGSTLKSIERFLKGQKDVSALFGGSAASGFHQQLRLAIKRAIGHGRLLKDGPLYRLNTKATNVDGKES
`ATGATTCA` gave an E-score of -0.087.
`CTCACAAC` gave an E-score of -0.00226.
For `GATCTATA`, the E-score was 0.059.
`TACCAGTA` has an E-score of 0.0224.
`AAATCAAC` has an E-score of -0.149.
The E-score of `TAGCACGA` is reported as -0.0111.
For `CCTACTTA`, the E-score was -0.206.
The E-score of `AAAGAGTA` is reported as -0.11.

Study 2
Target: Centromere-binding protein 1, full length, N-terminal tag (CBF1, Saccharomyces cerevisiae, UniProt P17106, residues 1-351)
Chain of UniProt P17106 (whole entry, looked up): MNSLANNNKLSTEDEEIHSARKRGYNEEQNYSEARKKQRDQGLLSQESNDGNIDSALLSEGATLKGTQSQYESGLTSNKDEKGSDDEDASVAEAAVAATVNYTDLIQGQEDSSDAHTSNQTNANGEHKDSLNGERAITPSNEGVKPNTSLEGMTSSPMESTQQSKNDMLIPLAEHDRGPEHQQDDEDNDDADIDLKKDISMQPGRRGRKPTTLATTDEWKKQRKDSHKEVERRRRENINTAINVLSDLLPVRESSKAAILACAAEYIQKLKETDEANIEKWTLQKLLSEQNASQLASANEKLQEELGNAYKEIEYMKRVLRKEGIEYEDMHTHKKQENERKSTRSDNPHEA
Method: protein-binding microarray
Form: double-stranded DNA, one strand shown
Medium: in vitro
Tested at: 0.8 µM
Notes: whole 60-bp probe, no competitor
Direction: higher = stronger binding
The fluorescence intensity of `CTAGGCGCACACAATCACGTTACTTGAATCTCATTCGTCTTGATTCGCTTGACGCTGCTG` is reported as 2230 a.u.
`GAAGTGACTGGAGAGATCGTGACACTGCTGATGTAGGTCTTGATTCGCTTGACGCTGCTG` gave a fluorescence intensity of 739 a.u.
The fluorescence intensity of `TGTACGAAGCTATTAGATGTCACTATAGTAGTTAGGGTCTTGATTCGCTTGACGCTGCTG` is reported as 543 a.u.
The fluorescence intensity of `GAACCAATATCAAATCTGGTGGTAATCCCGATGTAGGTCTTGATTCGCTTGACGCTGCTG` is reported as 511 a.u.
With `GAAAAGTGGCAGTGTCACCTAAAATATTAGTACTAGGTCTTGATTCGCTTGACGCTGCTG` the fluorescence intensity was 498 a.u.
For `CTACATCACTATGCACTGATGACGTCACTGTCATTCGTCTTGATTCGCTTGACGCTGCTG`, the fluorescence intensity was 529 a.u.
`CTACTTTTTCAACGTCAGGCTGAAATTGACAACTTCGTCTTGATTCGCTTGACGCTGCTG` has a fluorescence intensity of 572 a.u.
For `CTAATCGATAACAGGGACGTGCGCCGCTAATGTTTCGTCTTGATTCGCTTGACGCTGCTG`, the fluorescence intensity was 521 a.u.

Study 3
Target: Interferon regulatory factor 7, full length, phosphomimetic (IRF7, Homo sapiens, UniProt Q92985, residues 1-503, S101K/S471D/S472D/S475D/S476D/S477D/S483D/S484D/S487D)
Method: protein-binding microarray
Form: double-stranded DNA, one strand shown
Medium: in vitro
Tested at: 250 nM
Notes: 60-bp whole probe
Together with: salmon DNA 0.4 mg/ml
Reference: random background probes
Direction: higher = stronger binding
Shared flanks, not repeated: GCCTAGCAC … GTCTTGATTCGCTTGACGCTGCTG
Residues (chain): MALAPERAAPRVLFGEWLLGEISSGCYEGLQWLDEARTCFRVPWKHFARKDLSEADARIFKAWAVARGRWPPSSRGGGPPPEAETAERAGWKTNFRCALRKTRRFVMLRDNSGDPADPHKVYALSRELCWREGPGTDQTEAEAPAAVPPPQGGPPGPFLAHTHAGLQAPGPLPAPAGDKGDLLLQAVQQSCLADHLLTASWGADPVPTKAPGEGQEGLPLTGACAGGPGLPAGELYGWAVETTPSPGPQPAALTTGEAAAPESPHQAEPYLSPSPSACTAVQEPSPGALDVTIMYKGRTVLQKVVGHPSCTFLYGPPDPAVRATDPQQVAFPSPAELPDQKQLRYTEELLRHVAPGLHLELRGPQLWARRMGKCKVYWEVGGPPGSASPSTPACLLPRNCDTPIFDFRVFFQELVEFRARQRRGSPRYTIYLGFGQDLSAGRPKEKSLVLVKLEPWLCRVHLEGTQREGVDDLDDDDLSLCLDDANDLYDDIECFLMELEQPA
`TTAGATTTCAGTTTTGATTAGTGCTAG` gave a log fluorescence of 1.62 z-score.
`TTAGGTCTCCTTTTCCTCTAGTGCTAG` has a log fluorescence of 2.05 z-score.
For `GACGAACTGAGTTTCTAGACGTGCTAG`, the log fluorescence was 0.547 z-score.
For `TTTGACATCTTCATCAACTAGTGCTAG`, the log fluorescence was 0.00122 z-score.
With `TTAGATCTCACTATCGATTAGTGCTAG` the log fluorescence was 0.172 z-score.
`TTAGGTTACGGTATCGGTTAGTGCTAG` has a log fluorescence of 1.83 z-score.
With `TCATGTTTGTCACTCTCACTGTGCTAG` the log fluorescence was 0.609 z-score.
With `TCCAGGCTGGTCTCTAACTCAGTGCTA` the log fluorescence was -1.05 z-score.

Single results of other studies
Starting sequence: viral docking peptide; PGASRRLFGSSAD
`PGASKRLLGSSAD [R5K F8L]`: “normalised enrichment score” 0.107 (CCND2, cyclin fold, Cln2 fusion (human); yeast growth competition, sequencing; yeast; weak parent motif; reference: not given, higher = stronger binding).

For quick reference, copied from above (study 1):
For `CCTACTTA`, the E-score was -0.206.
The E-score of `AAAGAGTA` is reported as -0.11.
